Measurements gathered from unrelated publications.
Each numbered part is a random draw from the data of one study; scales do not carry over between parts. Several values in a cell are separate wells, animals, samples, runs or records.
Sequence of UniProt Q9H3N8 (whole entry, looked up): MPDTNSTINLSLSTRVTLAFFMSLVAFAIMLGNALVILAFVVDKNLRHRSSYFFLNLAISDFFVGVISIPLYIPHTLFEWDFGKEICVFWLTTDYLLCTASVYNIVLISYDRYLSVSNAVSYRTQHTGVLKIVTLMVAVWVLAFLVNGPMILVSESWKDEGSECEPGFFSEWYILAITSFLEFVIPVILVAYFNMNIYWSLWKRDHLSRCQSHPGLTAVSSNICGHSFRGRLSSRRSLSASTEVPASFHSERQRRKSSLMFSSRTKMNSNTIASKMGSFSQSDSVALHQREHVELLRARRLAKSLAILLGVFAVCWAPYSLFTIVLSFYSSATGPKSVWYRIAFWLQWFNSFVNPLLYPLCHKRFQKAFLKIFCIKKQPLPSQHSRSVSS
Sequence of UniProt P21917 (whole entry, looked up): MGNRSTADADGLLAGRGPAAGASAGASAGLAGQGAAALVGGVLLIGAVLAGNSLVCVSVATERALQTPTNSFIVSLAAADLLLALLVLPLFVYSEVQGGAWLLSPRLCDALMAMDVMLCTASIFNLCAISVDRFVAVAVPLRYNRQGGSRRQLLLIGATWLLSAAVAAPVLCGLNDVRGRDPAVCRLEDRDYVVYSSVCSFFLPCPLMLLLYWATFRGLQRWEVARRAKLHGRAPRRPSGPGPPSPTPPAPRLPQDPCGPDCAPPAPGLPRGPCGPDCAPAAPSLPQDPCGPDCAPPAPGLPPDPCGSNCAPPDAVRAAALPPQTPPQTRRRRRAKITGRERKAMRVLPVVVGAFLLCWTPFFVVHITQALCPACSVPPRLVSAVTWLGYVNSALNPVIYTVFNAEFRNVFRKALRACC
Sequence of UniProt P34969 (whole entry, looked up): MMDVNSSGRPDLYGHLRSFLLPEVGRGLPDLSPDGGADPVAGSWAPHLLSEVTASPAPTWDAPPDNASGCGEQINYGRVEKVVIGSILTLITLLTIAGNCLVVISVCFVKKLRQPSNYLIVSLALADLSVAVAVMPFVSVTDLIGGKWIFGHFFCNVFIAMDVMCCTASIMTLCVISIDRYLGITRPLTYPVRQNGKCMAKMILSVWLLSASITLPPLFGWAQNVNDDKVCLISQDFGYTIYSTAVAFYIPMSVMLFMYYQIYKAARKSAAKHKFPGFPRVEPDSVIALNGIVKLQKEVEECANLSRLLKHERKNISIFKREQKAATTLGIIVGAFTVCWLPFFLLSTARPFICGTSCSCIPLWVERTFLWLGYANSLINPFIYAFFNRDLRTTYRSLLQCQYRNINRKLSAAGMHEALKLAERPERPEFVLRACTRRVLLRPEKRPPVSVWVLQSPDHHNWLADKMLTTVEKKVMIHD
Sequence of UniProt Q5BJF2 (whole entry, looked up): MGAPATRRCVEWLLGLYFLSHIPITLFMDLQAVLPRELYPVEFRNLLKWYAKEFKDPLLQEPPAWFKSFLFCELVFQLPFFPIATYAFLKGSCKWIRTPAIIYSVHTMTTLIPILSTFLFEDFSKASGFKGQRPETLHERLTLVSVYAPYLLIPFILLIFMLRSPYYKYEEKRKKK

Block 1
Target: Calcium/calmodulin-dependent protein kinase type II subunit alpha (CAMK2A, Homo sapiens, UniProt Q9UQM7)
Sequence of UniProt Q9UQM7 (whole entry, looked up): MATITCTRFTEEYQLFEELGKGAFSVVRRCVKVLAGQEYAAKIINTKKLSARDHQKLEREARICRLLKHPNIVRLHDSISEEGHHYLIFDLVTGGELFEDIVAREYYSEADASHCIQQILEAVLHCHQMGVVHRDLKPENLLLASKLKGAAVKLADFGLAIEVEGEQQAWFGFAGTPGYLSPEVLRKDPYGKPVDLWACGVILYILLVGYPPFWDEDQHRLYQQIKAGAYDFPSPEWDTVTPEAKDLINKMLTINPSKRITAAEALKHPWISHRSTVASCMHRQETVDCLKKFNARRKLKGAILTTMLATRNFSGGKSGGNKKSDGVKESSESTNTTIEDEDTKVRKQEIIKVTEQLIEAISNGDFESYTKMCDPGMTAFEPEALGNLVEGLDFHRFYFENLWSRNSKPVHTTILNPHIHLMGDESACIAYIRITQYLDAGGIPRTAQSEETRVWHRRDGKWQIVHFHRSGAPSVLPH
Effect on: enzyme activity
Action: inhibitor
Tested at: 10 µM
With O=c1oc2cc(O)ccc2c2cc(O)c(O)cc12 the inhibition was -98%.
CC1(C)CC[C@]2(C)CC[C@]3(C)C(=CC[C@@H]4[C@@]5(C)CC[C@H](O)C(C)(C)[C@@H]5CC[C@]43C)[C@@H]2C1 has an inhibition of 3%.
The inhibition of c1ccc2[nH]ccc2c1 is reported as -64%.
For O=C(OC[C@H]1O[C@@H](Oc2c(-c3ccc(O)c(O)c3)oc3cc(O)cc(O)c3c2=O)[C@H](O)[C@@H](O)[C@H]1O)c1cc(O)c(O)c(O)c1, the inhibition was -51%.
For CCOCc1ccccc1, the inhibition was -21%.
COc1cc(/C=C/C(=O)O[C@H]2[C@H](O)[C@@H](CO)O[C@@]2(CO)O[C@H]2O[C@H](CO)[C@@H](O)[C@H](O)[C@H]2O)ccc1O has an inhibition of 5%.
With O=C1c2ccccc2C(=O)c2c(O)c(O)cc(O)c21 the inhibition was -15%.
With CC(C(=O)O)c1ccc2c(c1)Cc1cccnc1O2 (centres unmarked) the inhibition was -13%.
CN1C(=O)/C(=C2/C(=O)Nc3ccccc32)c2ccccc21 has an inhibition of 3%.
With OC[C@H]1O[C@@](CO)(OC[C@@]2(OC[C@@]3(OC[C@@]4(O[C@H]5O[C@H](CO)[C@@H](O)[C@H](O)[C@H]5O)O[C@H](CO)[C@@H](O)[C@@H]4O)O[C@H](CO)[C@@H](O)[C@@H]3O)O[C@H](CO)[C@@H](O)[C@@H]2O)[C@@H](O)[C@@H]1O the inhibition was 25%.
The inhibition of CC(C)(C)NCC(O)COc1cccc2c1CCC(=O)N2 (centres unmarked) is reported as -5%.
For CC(C(=O)O)c1ccc(C(=O)c2ccccc2)s1 (centres unmarked), the inhibition was 19%.
CN1CCN(c2c(F)cc3c(=O)c(C(=O)O)cn4c3c2SCC4)CC1 has an inhibition of -6%.
The inhibition of C[C@@H]1C[C@H]2O[C@@]3(O[C@@H]2C(C)(C)O)[C@H](O)[C@@]2(C)[C@@H]4CC[C@H]5C(C)(C)[C@@H](O)CC[C@@]56C[C@@]46CC[C@]2(C)[C@@H]13 is reported as -9%.
CCCCCCCCCCCCCCCCCCC(=O)O has an inhibition of -12%.
Cc1cnc(C(=O)N[C@H]2CCCCC/C=C\[C@@H]3C[C@@]3(C(=O)NS(=O)(=O)C3CC3)NC(=O)[C@@H]3C[C@@H](Oc4nc5ccccc5c5ccccc45)CN3C2=O)cn1 gave an inhibition of -7%.

Block 2
Compound: CC(=O)C1=C(C)N(c2cccc(C(F)(F)F)c2)C(=O)N[C@H]1c1ccc(C#N)nc1
Tested at: 10 µM
The inhibition was 5.28% (HRH1 (Homo sapiens, UniProt P35367); ligand displacement).
It gave 2.19% for inhibition (CHRM5 (Homo sapiens, UniProt P08912); ligand displacement).
HTR7 (Homo sapiens, UniProt P34969); ligand displacement — inhibition: 13.9%.
The inhibition was 21.6% (ADRB2 (Homo sapiens, UniProt P07550); ligand displacement).
For HTR3A (Homo sapiens, UniProt P46098); cell-free assay: inhibition read 23.7%.
It gave 14.9% for inhibition (HTR6 (Homo sapiens, UniProt P50406); ligand displacement).
For ADRA2C (Homo sapiens, UniProt P18825); ligand displacement: inhibition read 11%.
It gave -15.5% for inhibition (SIGMAR1 (Homo sapiens, UniProt Q99720); ligand displacement).
For TMEM97 (Homo sapiens, UniProt Q5BJF2); ligand displacement: inhibition read 20.9%.
The inhibition was -9.21% (CHRM2 (Homo sapiens, UniProt P08172); ligand displacement).
DRD4 (Homo sapiens, UniProt P21917); ligand displacement — inhibition: 5.84%.
The inhibition was -8.1% (ADRA1B (Homo sapiens, UniProt P35368); ligand displacement).
It gave -0.78% for inhibition (HRH4 (Homo sapiens, UniProt Q9H3N8); ligand displacement).

Block 3
Target: DNA polymerase theta, ATPase domain (POLQ, Homo sapiens, UniProt O75417)
Sequence of UniProt O75417 (whole entry, unmodified, looked up): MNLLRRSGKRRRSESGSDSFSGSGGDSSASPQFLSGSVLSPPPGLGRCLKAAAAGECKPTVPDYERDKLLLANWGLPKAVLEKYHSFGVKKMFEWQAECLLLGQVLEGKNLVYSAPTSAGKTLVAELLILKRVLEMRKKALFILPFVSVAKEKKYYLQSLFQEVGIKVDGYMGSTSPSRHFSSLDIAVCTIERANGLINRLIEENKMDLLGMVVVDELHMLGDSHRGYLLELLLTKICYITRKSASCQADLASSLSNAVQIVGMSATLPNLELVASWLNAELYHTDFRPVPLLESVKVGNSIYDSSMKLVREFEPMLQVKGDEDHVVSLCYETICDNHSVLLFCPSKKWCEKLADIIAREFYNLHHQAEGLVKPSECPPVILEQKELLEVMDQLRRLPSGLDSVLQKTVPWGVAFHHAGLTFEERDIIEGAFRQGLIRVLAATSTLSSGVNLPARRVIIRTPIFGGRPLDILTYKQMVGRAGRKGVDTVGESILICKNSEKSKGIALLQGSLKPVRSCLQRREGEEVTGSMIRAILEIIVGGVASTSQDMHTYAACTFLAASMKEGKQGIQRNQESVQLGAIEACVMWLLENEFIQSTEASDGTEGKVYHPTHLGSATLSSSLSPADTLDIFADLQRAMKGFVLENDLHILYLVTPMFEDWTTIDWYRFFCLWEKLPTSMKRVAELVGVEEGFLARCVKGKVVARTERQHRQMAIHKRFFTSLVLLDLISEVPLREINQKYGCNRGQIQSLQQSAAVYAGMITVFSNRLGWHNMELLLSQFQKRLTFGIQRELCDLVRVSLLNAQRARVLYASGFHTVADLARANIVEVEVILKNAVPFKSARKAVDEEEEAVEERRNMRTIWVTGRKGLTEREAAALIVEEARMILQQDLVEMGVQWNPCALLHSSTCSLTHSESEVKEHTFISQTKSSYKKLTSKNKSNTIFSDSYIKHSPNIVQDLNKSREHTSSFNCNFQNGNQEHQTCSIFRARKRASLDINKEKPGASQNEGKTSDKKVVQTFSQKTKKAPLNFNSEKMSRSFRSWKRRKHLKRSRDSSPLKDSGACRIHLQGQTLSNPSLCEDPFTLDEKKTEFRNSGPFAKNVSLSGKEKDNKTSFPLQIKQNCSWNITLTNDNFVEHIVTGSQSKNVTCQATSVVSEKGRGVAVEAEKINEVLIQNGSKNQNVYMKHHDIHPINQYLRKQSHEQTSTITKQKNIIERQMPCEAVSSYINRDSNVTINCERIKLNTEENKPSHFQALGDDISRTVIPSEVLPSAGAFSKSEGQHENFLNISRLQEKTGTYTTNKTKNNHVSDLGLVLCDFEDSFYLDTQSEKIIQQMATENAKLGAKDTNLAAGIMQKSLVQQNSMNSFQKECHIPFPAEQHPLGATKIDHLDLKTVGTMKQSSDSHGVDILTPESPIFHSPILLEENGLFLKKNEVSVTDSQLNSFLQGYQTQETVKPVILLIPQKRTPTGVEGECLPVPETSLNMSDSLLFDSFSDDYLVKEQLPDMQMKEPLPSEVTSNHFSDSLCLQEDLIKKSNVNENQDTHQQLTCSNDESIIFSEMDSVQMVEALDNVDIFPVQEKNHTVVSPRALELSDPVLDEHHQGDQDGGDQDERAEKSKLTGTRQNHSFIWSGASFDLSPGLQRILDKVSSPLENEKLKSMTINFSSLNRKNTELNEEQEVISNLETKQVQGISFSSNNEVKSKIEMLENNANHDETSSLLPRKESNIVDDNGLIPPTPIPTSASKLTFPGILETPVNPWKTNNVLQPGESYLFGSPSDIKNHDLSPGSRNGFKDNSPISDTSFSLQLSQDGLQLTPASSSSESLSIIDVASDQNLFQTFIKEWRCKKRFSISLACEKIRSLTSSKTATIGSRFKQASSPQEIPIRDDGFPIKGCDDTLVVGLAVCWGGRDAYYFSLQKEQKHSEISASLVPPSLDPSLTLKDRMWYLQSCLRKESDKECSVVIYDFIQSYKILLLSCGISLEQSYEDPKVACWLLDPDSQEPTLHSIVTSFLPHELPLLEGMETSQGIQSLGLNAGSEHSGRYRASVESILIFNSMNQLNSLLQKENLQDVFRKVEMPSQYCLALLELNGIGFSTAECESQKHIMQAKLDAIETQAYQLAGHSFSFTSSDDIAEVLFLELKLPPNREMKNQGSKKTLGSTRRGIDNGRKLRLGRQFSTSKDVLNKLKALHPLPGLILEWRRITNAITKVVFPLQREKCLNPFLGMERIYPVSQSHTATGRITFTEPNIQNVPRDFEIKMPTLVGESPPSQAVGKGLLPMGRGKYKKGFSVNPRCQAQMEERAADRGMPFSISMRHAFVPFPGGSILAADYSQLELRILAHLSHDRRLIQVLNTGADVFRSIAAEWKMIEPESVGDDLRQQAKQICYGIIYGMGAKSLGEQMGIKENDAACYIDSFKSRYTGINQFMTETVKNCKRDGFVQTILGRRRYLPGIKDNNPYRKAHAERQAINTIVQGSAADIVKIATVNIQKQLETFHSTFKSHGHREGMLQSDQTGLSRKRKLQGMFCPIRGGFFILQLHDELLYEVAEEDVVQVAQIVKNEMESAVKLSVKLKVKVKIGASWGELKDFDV
Effect on: enzyme activity
Action: inhibitor
Tested at: 77 µM
Relative to: untreated
The remaining activity of C[C@H](N)[C@H](O)c1cccc(O)c1 is reported as 102%.
With CN(C/C=C/C#CC(C)(C)C)Cc1cccc2ccccc12 the remaining activity was 81.7% and 95.9%.
With CCCCN(CCCC)CCCOC(=O)c1ccc(N)cc1 the remaining activity was 97.8%.
For CN[C@@H]1[C@H](O[C@H]2[C@H](O[C@H]3[C@H](O)[C@@H](O)[C@H](N=C(N)N)[C@@H](O)[C@@H]3N=C(N)N)O[C@@H](C)[C@]2(O)CO)O[C@@H](CO)[C@H](O)[C@H]1O, the remaining activity was 94.9%.
With O=C1Nc2ccc(Br)cc2/C1=C/c1cc2c([nH]1)CCCC2 the remaining activity was 93.6%.
CC[C@@H]([C@H](C)O)n1ncn(-c2ccc(N3CCN(c4ccc(OC[C@@H]5CO[C@@](Cn6cncn6)(c6ccc(F)cc6F)C5)cc4)CC3)cc2)c1=O gave a remaining activity of 95.5%.
The remaining activity of O=C1NC(=O)C(c2ccccc2)(c2ccccc2)N1 is reported as 103%.
CC(C)NCCCn1c(Sc2cc3c(cc2I)OCO3)nc2c(N)ncnc21 has a remaining activity of 93.7%.
With CC(=O)Oc1ccccc1C(=O)Nc1ncc([N+](=O)[O-])s1 the remaining activity was 54%.
The remaining activity of CN(C)CCCN1c2ccccc2Sc2ccc(Cl)cc21 is reported as 107% and 141%.
The remaining activity of CCN(CC)CCN(Cc1ccc(-c2ccc(C(F)(F)F)cc2)cc1)C(=O)Cn1c(SCc2ccc(F)cc2)nc(=O)c2c1CCC2 is reported as 99.2%.

Block 4
Target: Casein kinase I isoform gamma-1 (CSNK1G1, Homo sapiens, UniProt Q9HCP0)
Sequence of UniProt Q9HCP0 (whole entry, looked up): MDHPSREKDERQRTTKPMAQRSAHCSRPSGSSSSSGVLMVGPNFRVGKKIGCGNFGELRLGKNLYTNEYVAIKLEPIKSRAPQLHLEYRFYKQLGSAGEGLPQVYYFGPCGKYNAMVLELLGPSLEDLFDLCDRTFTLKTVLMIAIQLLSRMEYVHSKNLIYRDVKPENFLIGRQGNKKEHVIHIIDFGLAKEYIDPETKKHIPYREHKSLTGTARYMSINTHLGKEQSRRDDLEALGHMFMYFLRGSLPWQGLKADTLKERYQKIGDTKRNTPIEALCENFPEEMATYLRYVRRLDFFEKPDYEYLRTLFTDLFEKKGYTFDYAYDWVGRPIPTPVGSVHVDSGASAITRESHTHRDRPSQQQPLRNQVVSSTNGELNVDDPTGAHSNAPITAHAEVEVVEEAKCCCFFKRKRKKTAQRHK
Effect on: enzyme activity
Action: inhibitor
Tested at: 0.5 µM
Relative to: control
For O=Nc1c(-c2c(O)[nH]c3ccccc23)[nH]c2ccccc12, the remaining activity was 86.8%.
For NC(=O)c1ccc(-c2nc(-c3ccc4c(c3)OCCO4)c(-c3ccccn3)[nH]2)cc1, the remaining activity was 104%.
CC(C)N(CCC(=O)c1ccc2ccccc2c1)Cc1ccccc1 has a remaining activity of 101%.
For O=C(c1ccccc1)c1ccc(N2CCOCC2)cc1O, the remaining activity was 105%.
O=C1c2ccccc2-c2nc3nnnn3nc21 gave a remaining activity of 85.2%.
C[C@@H](N)[C@H]1CC[C@H](C(=O)Nc2ccncc2)CC1 has a remaining activity of 99.6%.
The remaining activity of COc1cc2c(N3CCN(C(=O)Nc4ccc(OC(C)C)cc4)CC3)ncnc2cc1OCCCN1CCCCC1 is reported as 98%.
The remaining activity of Clc1ccc(Nc2nnc(Cc3ccncc3)c3ccccc23)cc1 is reported as 103%.
The remaining activity of CCN(CC)CCCCN1c2ccccc2Oc2ccc(Cl)cc21 is reported as 104%.
N#CC(c1ccnc(NCCc2cccnc2)n1)c1nc2ccccc2s1 (centres unmarked) has a remaining activity of 88.8%.
CNc1cc2c(Nc3cccc(Br)c3)ncnc2cn1 has a remaining activity of 81.7%.
The remaining activity of N#C/C(=C(/N)SC1C=CC=CC1)c1cccc(C(O)c2ccncc2)c1 (centres unmarked) is reported as 88.2%.
For Nc1nc(Nc2ccc(S(N)(=O)=O)cc2)nn1C(=S)Nc1c(F)cccc1F, the remaining activity was 16.7%.
O=C(O)/C=C/c1cc(Br)c(Br)c(Br)c1Br has a remaining activity of 97.2%.
O=C1NC(=O)/C(=C/c2ccc3c(c2)OC(F)(F)O3)S1 gave a remaining activity of 75.5%.
CC(C)n1cnc2c(Nc3cccc(Cl)c3)nc(NCCO)nc21 has a remaining activity of 16%.
With O=c1c(-c2ccc(F)cc2)c(-c2ccncc2)[nH]n1-c1ccc(Cl)cc1 the remaining activity was 83.4%.
c1cc(-c2cnn3cc(-c4ccc(OCCN5CCCCC5)cc4)cnc23)ccn1 gave a remaining activity of 88.7%.
The remaining activity of CCCCc1c(-c2ccc(O)cc2)[nH]c2nccnc12 is reported as 93.1%.
FC(F)(F)c1ccc(/C=C/c2nc(COc3ccc(CCCCn4ccnn4)cc3)co2)cc1 gave a remaining activity of 100%.
NC(=O)c1cccc(-c2cc(Nc3ccc(OC(F)(F)F)cc3)ncn2)c1 has a remaining activity of 97.8%.
For CC(C)(C)c1nc2c3cc[nH]c(=O)c3c3cc(F)ccc3c2[nH]1, the remaining activity was 96.5%.

For quick reference, copied from above (block 4):
For O=C(c1ccccc1)c1ccc(N2CCOCC2)cc1O, the remaining activity was 105%.
CC(C)n1cnc2c(Nc3cccc(Cl)c3)nc(NCCO)nc21 has a remaining activity of 16%.
c1cc(-c2cnn3cc(-c4ccc(OCCN5CCCCC5)cc4)cnc23)ccn1 gave a remaining activity of 88.7%.
O=C1c2ccccc2-c2nc3nnnn3nc21 gave a remaining activity of 85.2%.
